Experimental data from different studies.
Each line is one published result; not all experiments were run side by side. “And” joins repeats or separate records; there may be more than shown. ± gives the spread as reported.

| SMILES | assay | system | setting | scale | measurement | value |
| --- | --- | --- | --- | --- | --- | --- |
| CCCCCCCCCCCCCCCC(=O)N[C@@H](CCC(=O)NCCCC[C@H](NC(=O)[C@H](CC(=O)O)NC(=O)[C@H](CO)NC(=O)[C@@H](NC(=O)[C@H](Cc1ccccc1)NC(=O)[C@@H](NC(=O)CNC(=O)[C@H](CCC(N)=O)NC(=O)[C@H](C)NC(=O)[C@@H](Cc1ccc(O)cc1)NC(C)=O)[C@@H](C)O)[C@@H](C)O)C(=O)N[C@@H](CO)C(=O)N[C@@H](CCCCN)C(=O)N[C@@H](Cc1ccc(O)cc1)C(=O)N[C@@H](CC(C)C)C(=O)N[C@@H](CC(=O)O)C(=O)N[C@@H](CCC(=O)O)C(=O)N[C@@H](CCCNC(=N)N)C(=O)N[C@@H](C)C(=O)N[C@@H](C)C(=O)N[C@@H](CCC(N)=O)C(=O)N[C@@H](CC(=O)O)C(=O)N[C@@H](Cc1ccccc1)C(=O)N[C@H](C(=O)N[C@@H](CCC(N)=O)C(=O)N[C@@H](Cc1c[nH]c2ccccc12)C(=O)N[C@@H](CC(C)C)C(=O)N[C@@H](CC(C)C)C(=O)N[C@@H](CCC(=O)O)C(=O)NCC(=O)NCC(=O)N1CCC[C@H]1C(=O)N[C@@H](CO)C(=O)N[C@@H](CO)C(=O)NCC(=O)N[C@@H](C)C(=O)N1CCC[C@H]1C(=O)N1CCC[C@H]1C(=O)N1CCC[C@H]1C(=O)N[C@@H](CO)C(N)=O)C(C)C)C(=O)O | – | cynomolgus monkey, plasma | intravenous, 0.0031 mg/kg | – | AUC(0-last) | 428 to 501 ng·h/mL |
| CCn1ccc(-c2cc(-c3cnn(C)c3)cc([C@@H](C)NC(=O)c3cc(OCCN(C)C)ccc3C)c2)n1 | – | C57BL/6J mice, male, plasma | iv, 10 mg/kg | – | AUC(0-t) | 6250 ng·h/mL |
| CC(C)C[C@@H](NC(=O)[C@@H](CCCNC(=N)N)NC(=O)[C@@H](Cc1c[nH]cn1)NC(=O)[C@@H](Cc1c[nH]c2ccccc12)NC(=O)[C@@H](Cc1c[nH]cn1)NC(=O)[C@@H](Cc1ccccc1)NC(=O)[C@H](NC(=O)[C@@H](Cc1ccc(O)cc1)NC(=O)CNC(=O)CNC(=O)CCOCCOCCOCCNC(=O)CN1CCN(CC(=O)O)CCN(CC(=O)O)CC1)[C@H](C)O)C(=O)N[C@H](CC(N)=O)C(=O)N1CCC[C@@H]1C(=O)O [gallium-68 labelled] | – | male C57BL/6 mice | intravenous, 1.85 MBq, 60 min, together with: antibody blocking | reference: tumour over liver | tumour-to-tissue ratio | 4.23 ± 0.92 |
| CC[C@H](C)[C@H](NC(=O)[C@H](CCCCN)NC(=O)CNC(=O)[C@H](CC(C)C)NC(=O)[C@H](Cc1ccccc1)NC(=O)[C@H](CCCCN)NC(=O)[C@H](CO)NC(=O)[C@H](Cc1ccccc1)NC(=O)[C@H](Cc1c[nH]c2ccccc12)NC(=O)[C@H](CCC(N)=O)NC(=O)[C@@H](NC(=O)[C@H](Cc1ccccc1)NC(=O)CCCCCNC(=O)CN1CCN(CC(=O)O)CCN(CC(=O)O)CCN(CC(=O)O)CC1)C(C)C)C(=O)N[C@@H](CCC(=O)O)C(=O)N1CCC[C@H]1C(=O)N[C@@H](CC(=O)O)C(=O)N[C@H](C(=O)N[C@@H](CO)C(=O)N[C@@H](CCC(N)=O)C(=O)N[C@H](C(=O)N[C@@H](CCC(N)=O)C(=O)N[C@@H](CC(=O)O)C(=O)N1CCC[C@H]1C(=O)N[C@@H](CC(N)=O)C(=O)N[C@@H](CC(=O)O)C(=O)N[C@@H](CCC(N)=O)C(=O)N[C@@H](Cc1ccc(O)cc1)C(=O)N[C@@H](CCC(=O)O)C(=O)N1CCC[C@H]1C(=O)N[C@@H](Cc1ccccc1)C(=O)O)C(C)C)C(C)C [copper-64 labelled] | dynamic PET | mouse both sexes, CT26 tumour, checkpoint inhibitor-treated, tumour | intravenous, 100 µCi/mouse, 110 s | – | SUVmean | 2.77 SUV |
| CC[C@H](C)[C@H](NC(=O)[C@H](CCCNC(=N)N)NC(=O)[C@H](CCCNC(=N)N)NC(=O)[C@H](CC(C)C)NC(=O)[C@H](Cc1c[nH]c2ccccc12)NC(=O)[C@H](CCCCN)NC(=O)[C@H](CCCNC(=N)N)NC(=O)[C@H](CCCCN)NC(=O)[C@H](CCCNC(=N)N)NC(=O)[C@H](CCCNC(=N)N)NC(=O)CN)C(=O)NCC(=O)N[C@@H](CCCCN)C(=O)NCC(=O)N[C@H](C(=O)N[C@@H](CCCCN)C(=O)N[C@H](C(=O)N[C@H](C(=O)NCC(=O)NCC(=O)N[C@@H](C)C(=O)N[C@@H](C)C(=O)N[C@@H](CC(C)C)C(=O)N[C@@H](CC(=O)O)C(=O)N[C@@H](Cc1c[nH]cn1)C(=O)N[C@@H](CC(C)C)C(N)=O)[C@@H](C)CC)[C@@H](C)CC)C(C)C | – | zebrafish embryos 28 hpf, E3 medium | 24 h | – | chronic toxic concentration | 5 µM |
| CSCC[C@H](N)C(=O)N[C@@H](C)C(=O)N[C@@H](CCCNC(=N)N)C(=O)N[C@@H](CCCNC(=N)N)C(=O)N[C@@H](CC(=O)O)C(=O)N[C@@H](CCCCN)C(=O)N[C@H](C(=O)N[C@@H](CC(=O)O)C(=O)N[C@@H](Cc1ccccc1)C(=O)N[C@@H](C)C(=O)N[C@@H](CCCNC(=N)N)C(=O)N[C@@H](CCCNC(=N)N)C(=O)N[C@@H](CCCNC(=N)N)C(=O)N[C@@H](CCCNC(=N)N)C(=O)NCCCCCC(=O)NCCCCC(NC(=O)CCCCCNC(=O)[C@H](CCCNC(=N)N)NC(=O)[C@H](CCCNC(=N)N)NC(=O)[C@H](CCCNC(=N)N)NC(=O)[C@H](CCCNC(=N)N)NC(=O)[C@H](C)NC(=O)[C@H](Cc1ccccc1)NC(=O)[C@H](CC(=O)O)NC(=O)[C@@H](NC(=O)[C@H](CCCCN)NC(=O)[C@H](CC(=O)O)NC(=O)[C@H](CCCNC(=N)N)NC(=O)[C@H](CCCNC(=N)N)NC(=O)[C@H](C)NC(=O)[C@@H](N)CCSC)[C@@H](C)O)C(=O)NCCCCC(NC(=O)C(CCCCNC(=O)CCCCCNC(=O)[C@H](CCCNC(=N)N)NC(=O)[C@H](CCCNC(=N)N)NC(=O)[C@H](CCCNC(=N)N)NC(=O)[C@H](CCCNC(=N)N)NC(=O)[C@H](C)NC(=O)[C@H](Cc1ccccc1)NC(=O)[C@H](CC(=O)O)NC(=O)[C@@H](NC(=O)[C@H](CCCCN)NC(=O)[C@H](CC(=O)O)NC(=O)[C@H](CCCNC(=N)N)NC(=O)[C@H](CCCNC(=N)N)NC(=O)[C@H](C)NC(=O)[C@@H](N)CCSC)[C@@H](C)O)NC(=O)CCCCCNC(=O)[C@H](CCCNC(=N)N)NC(=O)[C@H](CCCNC(=N)N)NC(=O)[C@H](CCCNC(=N)N)NC(=O)[C@H](CCCNC(=N)N)NC(=O)[C@H](C)NC(=O)[C@H](Cc1ccccc1)NC(=O)[C@H](CC(=O)O)NC(=O)[C@@H](NC(=O)[C@H](CCCCN)NC(=O)[C@H](CC(=O)O)NC(=O)[C@H](CCCNC(=N)N)NC(=O)[C@H](CCCNC(=N)N)NC(=O)[C@H](C)NC(=O)[C@@H](N)CCSC)[C@@H](C)O)C(N)=O)[C@@H](C)O (some centres unmarked) | – | mouse C57BL/6 female, small intestine | 3 h, radioiodinated peptide | reference: total radioactivity | tissue distribution | 16.3% and 10.2% and 8% |
| C[C@H](O)[C@@H](NC(=O)[C@H]1CCCN1C(=O)[C@@H](CCCCN)NC(=O)[C@@H](CO)NC(=O)[C@@H](Cc1ccc(O)cc1)NC(=O)[C@@H](CC(N)=O)NC(=O)CCOCCOCCOCCNC(=O)CN1CCN(CC(=O)O)CCN(CC(=O)O)CCN(CC(=O)O)CC1)C(=O)N[C@H](CC(=O)O)C(=O)N[C@H](CCCNC(=N)N)C(=O)N[C@H](CCC(N)=O)C(=O)N[C@H](Cc1ccc(O)cc1)C(=O)N[C@H](Cc1c[nH]cn1)C(=O)N[C@H](Cc1ccccc1)C(N)=O [copper-64 labelled] | ex vivo gamma counting | C57BL/6J mouse, male, normal, testis | intravenous, 1.85 MBq, 20 min | – | tissue uptake | 0.66 ± 0.05 %ID/g |
| CN1Cc2cc(Cl)ccc2-n2c(nnc2C2CCN(c3cccc([18F])n3)CC2)C1 | – | C57BL/6 mouse male, stomach | intravenous, 3.7 MBq, 5 min | – | tissue uptake | 7.34 ± 1.04 %ID/g |
| O=C1NC2(CC2)COc2ncc(F)cc2[C@H]2COCCN2c2ccn3ncc1c3n2 | – | Sprague-Dawley rats, male, blood | oral, 20 mg/kg/day, end of treatment, 4-week subacute toxicity | – | basophil percentage | 0.12 ± 0.08% |
| COc1ccc(CNc2ccc3c(c2)S(=O)(=O)C=C3)cc1 | – | male C57BL/6 mice, blood | intraperitoneal, 10 mg/kg, day 8, group average | – | red cell distribution width SD | 34.9 fL |
| N=C(N)NCCC[C@@H](NC(=O)[C@H](N)Cc1c[nH]c2ccccc12)C(=O)N[C@H](CCCCN)C(=O)N[C@H](Cc1c[nH]c2ccccc12)C(=O)N[C@H](CCCNC(=N)N)C(=O)N[C@H](CCCCN)C(=O)N[C@H](Cc1c[nH]c2ccccc12)C(=O)N[C@H](CCCNC(=N)N)C(=O)N[C@H](CCCCN)C(=O)N[C@H](Cc1c[nH]c2ccccc12)C(=O)N[C@H](CCCNC(=N)N)C(=O)N[C@H](CCCCN)C(N)=O | – | mouse, urine | 20 mg/kg | – | cystatin C level | 25.7 ng/mL |
| COC(=O)[C@H]1[C@@H](c2ccc(Cl)c(Cl)c2)C[C@@H]2CC[C@H]1N2CCCCCCCCCCCc1c2ccccc2cc2ccccc12 | fluorometric titration | – | 1 µM, 10% DMSO | – | pKa | 5 |
| CC(C)Oc1c(NC(=O)c2ccc(NC(=O)[C@H](CC(N)=O)NC(=O)c3ccc(/N=N/c4ccccc4)cc3)cc2)ccc(C(=O)N/N=C/c2ccc(C(=O)O)cc2)c1O | absorbance | DMSO | 50 °C, PSS to ground state relaxation | – | thermal half-life | 3.6 h |
| CSCC[C@H](NC(=O)CNC(=O)[C@H](CCCCN)NC(=O)[C@H](CC(C)C)NC(=O)[C@@H]1CCCN1C(=O)[C@H](CO)NC(=O)[C@H](Cc1c[nH]cn1)NC(=O)[C@H](Cc1c[nH]c2ccccc12)NC(=O)[C@H](CCCNC(=N)N)NC(=O)[C@H](CC(C)C)NC(=O)[C@H](CCCNC(=N)N)NC(=O)[C@H](Cc1c[nH]c2ccccc12)NC(=O)[C@H](CS)NC(=O)CCCCCNC(=O)CN1CCN(CC(=O)O)CCN(CC(=O)O)CCN(CC(=O)O)CC1)C(=O)O [copper-64 labelled] | ex vivo biodistribution | male C57BL/6J mice, testis | intravenous, 1.85 MBq, 18 h, B16-F10 tumour-bearing | – | tissue uptake | 0.7 %ID/g |
| COc1cnc2cccc(N3CCc4c(cc(Cn5ccnc5)cc4-c4cn(C)nc4C(F)(F)F)C3=O)c2c1 | – | CD-1 mouse | intraperitoneal, 100 mg/kg once daily, day 3, dose-escalation tolerability | reference: day 1 | body weight change | 5.6% |
| CC(C)[C@@H]1NC(=O)CNC(=O)[C@H](CC(N)=O)NC(=O)[C@H](CCCNC(=N)N)NC(=O)[C@H](Cc2ccc(O)cc2)NC(=O)[C@H](C(C)C)NC(=O)[C@@H](NC(=O)[C@@H](NC(=O)[C@H](CC(N)=O)NC(=O)[C@H](Cc2c[nH]c3ccccc23)NC(=O)[C@H](C)NC(=O)[C@H](Cc2ccccc2)NC(=O)CNC(=O)[C@H](CCCCN)NC(=O)[C@H](Cc2ccccc2)NC(=O)[C@H](Cc2ccccc2)NC(=O)[C@H](CCCCN)NC(=O)OCC2c3ccccc3-c3ccccc32)C(C)C)CSSC[C@@H](C(=O)N[C@@H](Cc2c[nH]cn2)C(=O)N[C@@H](CCCNC(=N)N)C(=O)N[C@@H](CCCNC(=N)N)C(=O)N[C@@H](C)C(=O)N[C@@H](CC(N)=O)C(N)=O)NC(=O)[C@H](C(C)C)NC(=O)[C@H](CCCNC(=N)N)NC1=O | – | ICR mouse | ip, 10 mg/kg | direction not given | group interaction score | 0 |
| CC1(C)C(=O)N(c2ccc(C#N)c(C(F)(F)F)c2)C(=S)N1c1ccc(C(N)=O)c(F)c1 | – | male human, plasma | oral, 80 mg, single dose, fasted | – | AUC | 151000 ng·h/mL |

A few entries again:
| SMILES | assay | system | setting | scale | measurement | value |
| --- | --- | --- | --- | --- | --- | --- |
| N=C(N)NCCC[C@@H](NC(=O)[C@H](N)Cc1c[nH]c2ccccc12)C(=O)N[C@H](CCCCN)C(=O)N[C@H](Cc1c[nH]c2ccccc12)C(=O)N[C@H](CCCNC(=N)N)C(=O)N[C@H](CCCCN)C(=O)N[C@H](Cc1c[nH]c2ccccc12)C(=O)N[C@H](CCCNC(=N)N)C(=O)N[C@H](CCCCN)C(=O)N[C@H](Cc1c[nH]c2ccccc12)C(=O)N[C@H](CCCNC(=N)N)C(=O)N[C@H](CCCCN)C(N)=O | – | mouse, urine | 20 mg/kg | – | cystatin C level | 25.7 ng/mL |
